Assay results of several laboratories.
Each line is one published result; not all experiments were run side by side.
Read-out: metabolic stability
Host: human

CCCCCn1ccc(C(=O)NC(C)(C)c2ccc(CNC(C)=O)cc2)n1  half-life (liver microsomes): 1.43 h
CCN(CC)CCOc1ccc(-c2nnn(Cc3ccc(OC)cc3)c2N)cc1  half-life (plasma): > 6.21 h
c1cc([C@H]2CCC[C@@]3(C2)OOC2(O3)C3CC4CC(C3)CC2C4)ccc1OCCN1CCOCC1 (mixture of isomers)  half-life (liver microsomes): 1.08 h
COc1cc2c(cc1NC(=O)c1cncn1C)C[C@H]1[C@H]3CCCC[C@@]23CCN1C  half-life (liver microsomes): 0.555 h
c1cc(OCCN2CCOCC2)cc([C@H]2CCC[C@@]3(C2)OOC2(O3)C3CC4CC(C3)CC2C4)c1 (mixture of isomers)  half-life (liver microsomes): 0.4 h
Cc1ccc(CNC(=O)c2ccn3c(-c4ccc(C#N)cc4)cnc3c2)cn1  half-life (liver microsomes): 1.02 h
CN(C)CCCNC(=O)C[C@H](Cc1ccc(F)cc1)NC(=O)[C@@H](Cc1ccc(Cl)cc1Cl)NC(=O)[C@H](N)Cc1ccccc1C#N  half-life (liver microsomes; 1 µM): 0.127 h
[2H]c1nc([2H])c(-c2nc([2H])n3c2C([2H])([2H])N=C(c2ccccn2)c2cc(C#C)ccc2-3)o1  half-life (liver microsomes): 20.4 h
CCc1nnc(-c2c(OC)cc(-c3cnc4cc(-c5cnn(C)c5)ccn34)cc2OC)o1  half-life (liver microsomes): > 2.48 h
NC1CCN(C(=O)Oc2cccc([C@H]3CCC[C@@]4(C3)OOC3(O4)C4CC5CC(C4)CC3C5)c2)C1 (some centres unmarked)  half-life (liver microsomes): 1.26 h
C[C@]12CC[C@H]3[C@@H](CCC4=CC(=O)CC[C@@]43C)[C@@H]1CC[C@@H]2O  half-life (hepatocytes; 1 µM): 0.335 h
